Assay results pooled from the literature.
Several values in a cell are separate wells, animals, samples, runs or records. Numbers after ± are the reported error. Converted amounts (≈) assume the structure as drawn.

Compound	organism	test	test system	conditions	how to read	measurement	value
CCOC(=O)C1(Cc2ccccc2)Oc2cc(F)ccc2N(Cc2ccccc2)C1=O (stereo not shown)	Eclipta prostrata		greenhouse	postemergence, 150 g ai/ha, 21 days		fresh weight inhibition	65.6 ± 1.77%
Cc1ccc(S(=O)(=O)NCCOc2ccc(C(SC(C)C)SC(C)C)cc2)cc1	Tobacco mosaic virus	curative activity	plant in vivo			EC50	1481 ± 2.5 µg/mL (≈ 3270 µM)
CCc1nn(C)c2nc(-c3ccc(C(=O)O)cc3)nc(NCc3ccccc3)c12	Cryptosporidium parvum		HCT-8	9 x EC90, 0 h	baseline: DMSO control	parasite number	101% and 109% and 96.8% and 93.3%
C[C@H](NC(=O)[C@@H](O)c1cc(F)cc(F)c1)C(=O)N[C@@H]1C(=O)N(C)c2ccccc2-c2ccccc21	dengue virus type 2	viral protein expression, immunoblot, item: NS4B and NS1	Huh-7.5.1	48 h		lowest effective concentration	3 nM
CN(C(=O)c1ccn2ncc(-c3ccc(C(N)=O)cc3)c2c1)c1ccc(C#N)cn1	Cryptosporidium parvum		UGA1 Nluc, IFN-gamma knockout C57BL/6 mice, faeces	oral, 10 mg/kg daily, 360 h post infection, treatment days 11-17	higher means more parasites	faecal Nluc luminescence	516 a.u. and 1650 a.u. and 3620 a.u. and 64300 a.u. and 3500 a.u.
COc1cc(C(SC(C)C)SC(C)C)ccc1OCCNS(=O)(=O)c1ccc(Cl)cc1	tobacco mosaic virus	protective activity	in vivo plant			EC50	250 ± 3.5 µg/mL (≈ 495 µM)
[O-][N+]1=C(c2ccccc2)C2=NCCN2c2ccccc21	Prevotella spp.	bacterial growth				MIC50	≤ 0.06 µg/mL
Cc1cc(N2CCC(C#N)(C3(C)CC3)C2=O)cc(C(=O)NCc2cc(F)cc(-c3cnn(C)c3)c2)n1 (racemic)	Plasmodium falciparum	parasite growth	compound-resistant Dd2-B2 bulk 1_Bulk_10e7_D4			IC50	62 nM
C=CCN1C(=O)C(CC=C)(C(=O)OCC)Oc2cc(F)ccc21 (stereo not shown)	Eclipta prostrata		greenhouse	postemergence, 150 g ai/ha, 21 days		fresh weight inhibition	53.5 ± 2.14%
CC(O)CN(CC(C)O)CC(C)O.O=C(O)C(Cl)Cl (stereo not shown)	Eleusine indica			15 mg/mL, 21 days, post-emergence, greenhouse		herbicidal inhibition	-36%
CCCCSC(SCCCC)c1ccc(OCCNS(=O)(=O)c2ccc(F)cc2)c(OC)c1	tobacco mosaic virus	protective activity	in vivo plant			EC50	269 ± 3.7 µg/mL (≈ 522 µM)
O=C(NNc1ccccc1)c1nnc(C23CC4CC(CC(C4)C2)C3)o1	Fusarium oxysporum	microbial growth		50 µg/mL		inhibition	68.2%
O=[N+]([O-])c1ccc(C2=[N+]([O-])c3ccccc3N3CCCN=C23)cc1	Parabacteroides distasonis and Bacteroides spp.	bacterial growth				MIC50	≤ 0.06 µg/mL
COc1cc(C(SC(C)C)SC(C)C)ccc1OCCNS(=O)(=O)c1ccc(F)c(Cl)c1	tobacco mosaic virus	curative activity	in vivo plant			EC50	> 2500 µg/mL
NCCO.O=C(O)C(Cl)Cl	Eclipta prostrata			15 mg/mL, 21 days, pre-emergence, greenhouse		herbicidal inhibition	0%
COC(=O)C1=CO[C@@H](C)[C@@H]2Cn3ccc4c5ccccc5nc-4c3C[C@H]12	Plasmodium falciparum		C2B, atovaquone-resistant	96 h	baseline: C2B over 3D7	resistance index	0.8
C[N+]1=C2C(c3ccc(Cl)cc3)=[N+]([O-])c3ccccc3N2CCC1	Parabacteroides distasonis and Bacteroides spp.	bacterial growth				MIC50	4 µg/mL
CCOC(=O)C1(Cc2ccc(OC)cc2)Oc2cc(F)ccc2N(Cc2ccc(OC)cc2)C1=O (stereo not shown)	Echinochloa crus-galli	fresh weight, greenhouse postemergence		postemergence, 150 g ai/ha, 21 days		inhibition	47.7 ± 1.66%
COc1cc(C(SC(C)C)SC(C)C)ccc1OCCNS(=O)(=O)c1ccccc1C(F)(F)F	Tobacco mosaic virus	inactivation activity	plant in vivo			EC50	856.2 ± 4.5 µg/mL (≈ 1590 µM)
COc1ccc(C2=[N+]([O-])c3ccccc3N3CCN=C23)cc1	Prevotella spp.	bacterial growth				MIC50	≤ 0.06 µg/mL
Cc1cc(C(=O)Nc2nc3cccc(C)c3n2[C@H]2CCCCN(C(=O)/C=C/CN(C)C)C2)ccn1	Trypanosoma brucei	cell growth, Alamar Blue	2T1 overexpressing Tb927.3.2440		baseline: parental 2T1	EC50 fold shift	0.61 fold and 0.92 fold
CCCSC(SCCC)c1ccc(OCCNS(=O)(=O)c2ccc(C)cc2)cc1	Tobacco mosaic virus	curative activity	plant in vivo			EC50	258.5 ± 2.3 µg/mL (≈ 570 µM)
CCOC(=O)C1(Cc2ccccc2)Oc2cc(C)ccc2N(Cc2ccccc2)C1=O (stereo not shown)	Eclipta prostrata	fresh weight, greenhouse postemergence		postemergence, 150 g ai/ha, 21 days		inhibition	52.9 ± 2.58%
CCCSC(SCCC)c1ccc(OCCNS(=O)(=O)c2ccc(Cl)cc2)c(OC)c1	Tobacco mosaic virus	protective activity	plant in vivo			EC50	211 ± 4.2 µg/mL (≈ 418 µM)
CSCC[C@H](N)C(=O)N[C@@H](CC(=O)O)C(=O)N[C@@H](CC(C)C)C(=O)N1CCC[C@H]1C(=O)N[C@@H](Cc1ccccc1)C(=O)N[C@H](CCC(=O)O)C(=O)N[C@@H](Cc1ccccc1)C(N)=O	Bacillus cereus		ATCC 14579, CD-1 mouse septicemia model	intravenous, 5 mg/kg twice daily, 6 d		survival rate	≤ 85%
CCOC(=O)C1(Cc2ccc(C(F)(F)F)cc2)Oc2cc(F)ccc2N(Cc2ccc(C(F)(F)F)cc2)C1=O (stereo not shown)	Echinochloa crus-galli	fresh weight, greenhouse postemergence		postemergence, 150 g ai/ha, 21 days		inhibition	48.8 ± 0.58%
CC(C)SC(SC(C)C)c1ccc(OCCNS(=O)(=O)c2cccc(Br)c2)c(Cl)c1	Tobacco mosaic virus	curative activity	plant in vivo			EC50	432.4 ± 3.8 µg/mL (≈ 782 µM)
CC[C@H](C)CCCCC(=O)N[C@@H](CCN)C(=O)N[C@H](C(=O)N[C@@H](CCN)C(=O)N[C@H]1CCNC(=O)[C@H]([C@@H](C)O)NC(=O)[C@H](CCN)NC(=O)[C@H](CCN)NC(=O)[C@H](CC(C)C)NC(=O)[C@@H](CC(C)C)NC(=O)[C@H](CCN)NC1=O)[C@@H](C)O	Escherichia coli	daily serial passaging	ATCC 8739	highest sub-MIC, 9 days	baseline: initial MIC	MIC fold change	2.26
